Published values from different studies.
Chain of UniProt P06493 (whole entry, looked up): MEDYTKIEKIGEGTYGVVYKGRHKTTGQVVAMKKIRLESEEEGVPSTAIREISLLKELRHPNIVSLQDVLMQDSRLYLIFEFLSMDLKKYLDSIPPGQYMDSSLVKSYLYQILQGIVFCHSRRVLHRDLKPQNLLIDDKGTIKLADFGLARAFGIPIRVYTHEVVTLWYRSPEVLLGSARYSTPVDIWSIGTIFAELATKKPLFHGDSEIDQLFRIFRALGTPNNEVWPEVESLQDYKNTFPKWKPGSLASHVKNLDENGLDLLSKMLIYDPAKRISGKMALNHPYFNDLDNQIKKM

Compound | target or system | test | conditions | quantity | value
CNc1ncc2c(/C=C/C(=O)N3CCC(OC)CC3)nn(Cc3cccc(C(F)(F)F)c3)c2n1 | Cyclin-dependent kinase 1, with cyclin E1 (CDK1, Homo sapiens, UniProt P06493) | enzyme activity, inhibitor, radiometric | 1 µM | remaining activity | 89%
COc1cc(/C=C/C(=O)C(=Cc2ccc(O)cc2)C(=O)/C=C/c2ccc(O)c(OC)c2)ccc1O | WRL68 | cell growth or viability, MTT | 0.77 µg/mL, 48 h | viability | 105%
Cc1ccc(S(=O)(=O)[N](Nc2ccc([N+](=O)[O-])cc2[N+](=O)[O-])[Sn]([Cl])[Cl])cc1 | HEK293 | cell growth or viability, MTT | 15.625 µg/mL | viability | 89%
CC(=O)OC[C@@]1(C)[C@H]2CC[C@@H]3CN(Cc4ccc(C)cc4)[C@@H](C4=CCOC4=O)C[C@H]3[C@]2(C)CC[C@H]1OC(C)=O | MRC5 | cell growth or viability, ATP luminescence | 25 µM, 72 h | cell death | -11.1%
COc1cc(F)c(-c2c(Cl)nc(-c3cccs3)nc2N[C@H](C)C(C)C)c(F)c1 | HEK293 | cell growth or viability, resazurin | 48 h | CC50 | 34.3 µM
C[C@]1(CO)[C@H]2CC[C@@H]3CN(Cc4ccc(F)c(Cl)c4)[C@@H](C4=CCOC4=O)C[C@H]3[C@]2(C)CC[C@H]1O | MRC5 | cell growth or viability, ATP luminescence | 25 µM, 72 h | cell death | 9.9%
CC(C)[C@@H](C)Nc1nc(-c2cccs2)nc(Cl)c1-c1c(F)cc(C#N)cc1F | HEK293 | cell growth or viability, resazurin | 48 h | CC50 | > 50 µM
COc1cccc2c1C(=O)c1c(O)c3c(c(O)c1C2=O)C[C@@](O)(C(=O)CO)C[C@@H]3O[C@H]1C[C@H](N)[C@H](O)[C@H](C)O1 | SW480 | cell growth or viability, MTT | 6.25 µg/mL | viability | 71.7%
CC(=O)OC[C@@]1(C)[C@H]2CC[C@@H]3CN(Cc4ccccc4C)[C@@H](C4=CCOC4=O)C[C@H]3[C@]2(C)CC[C@H]1OC(C)=O | MRC5 | cell growth or viability, ATP luminescence | 25 µM, 72 h | cell death | -4.9%
CC(C)(C)CNc1nc(-c2cccs2)nc(Cl)c1-c1c(F)cc([N+](=O)[O-])cc1F | HEK293 | cell growth or viability, resazurin | 48 h | CC50 | > 50 µM
CC1(C)OC[C@@]2(C)[C@H]3CC[C@@H]4CN(Cc5ccc(I)cc5)[C@@H](C5=CCOC5=O)C[C@H]4[C@]3(C)CC[C@H]2O1 | MRC5 | cell growth or viability, ATP luminescence | 25 µM, 72 h | cell death | 2.4%
OCCN(CCO)c1nc(-c2cccs2)nc(Cl)c1-c1c(F)cc(F)cc1F | HEK293 | cell growth or viability, resazurin | 48 h | CC50 | 34.9 µM
COc1cccc(NC(=O)Nc2ccc(Oc3nc4ccccc4n4cnnc34)cc2)c1 | WISH | cell growth or viability, MTT | 50 µM, 24 h | viability | 52.5%
Nc1ccn([C@@H]2O[C@H](CO)[C@@H](O)C2(F)F)c(=O)n1 | MCF7 | cell growth or viability, MTT | 0.3125 µg/mL, 48 h | viability | 78.9%
CC(=O)OC[C@@]1(C)[C@H]2CC[C@@H]3CN(Cc4ccc([N+](=O)[O-])cc4)[C@@H](C4=CCOC4=O)C[C@H]3[C@]2(C)CC[C@H]1OC(C)=O | MRC5 | cell growth or viability, ATP luminescence | 25 µM, 72 h | cell death | -1.7%
CNC(=O)c1cc(Oc2ccc(NC(=O)Nc3ccc(Cl)c(C(F)(F)F)c3)cc2)ccn1 | WISH | cell growth or viability, MTT | 25 µM, 24 h | viability | 34.8%
